Results of several laboratories.
Lines come from different studies, so protocols differ. ± marks the error that the study gave.
Organism: Leishmania donovani

SMILES | assay | test system | setting | scale | endpoint | result
CC(=O)Oc1ccc(Cn2cc(C)c(=O)[nH]c2=O)cc1C1OC(c2ccccc2)=NN1C(C)=O (stereo not shown) | parasite growth, SYBR Green | RAW264.7 | intracellular, amastigote |  | IC50 | > 100 µM
CC/C(=C\c1ccc(OCC(=O)NC(C(=O)N2CCOCC2)c2ccccc2)cc1)[N+](=O)[O-] (stereo not shown) |  | macrophages, intracellular amastigotes | 6.25 µM, 72 h |  | inhibition | 46.8%
CCOC(=O)C(C)NC(=O)CN1C(=O)N/C(=C\c2ccc(C)cc2)C1=O (stereo not shown) | parasite growth, resazurin |  | promastigote |  | IC50 | > 100 µM
CCCCOC(=O)/C=C/c1ccc(O)c([N+](=O)[O-])c1 |  | MHOM/ET/67/L-82 |  | baseline: IC50 L6 cells over IC50 amastigotes | selectivity index | 355
Cc1nc(C)c(C(=O)Nc2ccc(F)c(-c3nc4ncc(-c5ccccn5)cn4n3)c2)o1 |  | primary mouse macrophages, intracellular amastigotes |  |  | EC99 | 42 ± 5.6 nM
CC(C)OC(=O)/C=C/c1ccc(O)c([N+](=O)[O-])c1 |  | MHOM/ET/67/L-82 |  | baseline: IC50 L6 cells over IC50 amastigotes | selectivity index | 113
CCC(NC(=O)CN1C(=O)N/C(=C\c2ccc(C)cc2)C1=O)C(=O)OC (stereo not shown) | parasite growth |  | 24 h, intracellular, amastigote |  | IC50 | 4.87 µM
CCCCCCCCOC(=O)/C=C/c1ccc(O)c(O)c1 |  | MHOM/ET/67/L-82 | concentration not given, axenic amastigotes, active if IC50 < 10 µM |  | antileishmanial activity | active
CCOC(=O)CNC(=O)CN1C(=O)S/C(=C\c2ccc(C)cc2)C1=O | parasite growth |  | 24 h, intracellular, amastigote |  | IC50 | > 10 µM
COC(=O)/C=C/c1ccc(O)c([N+](=O)[O-])c1 |  | MHOM/ET/67/L-82 |  | baseline: IC50 L6 cells over IC50 amastigotes | selectivity index | 375
CCOC(=O)C(CC)NC(=O)CN1C(=O)S/C(=C\c2ccc(OC)cc2)C1=O (stereo not shown) | parasite growth |  | 72 h, intracellular, amastigote |  | IC50 | > 10 µM
CCCCCCCCCC1CC2CCC3CC(CCCCCCCCC)NC(=N1)N23 (stereo not shown) | parasite growth, Alamar Blue | promastigotes |  |  | IC90 | 11.3 µM
CCOC(=O)C(C)NC(=O)CN1C(=O)S/C(=C\c2ccc(F)cc2)C1=O (stereo not shown) | parasite growth, resazurin |  | promastigote |  | IC50 | > 100 µM
CCCCCCCCCC1CC2CCCC3CC(CCCCCCCCC)NC(=N1)N23 (stereo not shown) | parasite growth, Alamar Blue | promastigotes |  |  | IC90 | 12.8 µM
CC/C(=C\c1ccc(OCC(=O)NC(C(=O)N2CCSCC2)c2ccccc2)cc1)[N+](=O)[O-] (stereo not shown) |  | macrophages, intracellular amastigotes | 12.5 µM, 72 h |  | inhibition | 90.3%
CCCCOC(=O)/C=C/c1ccc(O)c(O)c1 |  | MHOM/ET/67/L-82 | concentration not given, axenic amastigotes, active if IC50 < 10 µM |  | antileishmanial activity | active
